Results pooled from the literature.
Every numbered part comes from another study and shows a few of its results, in no order. Substitutions count along the parent as printed.

Study 1
Target: CCND3, cyclin fold, Cln2 fusion (human)
Method: yeast growth competition, sequencing
Sample: yeast
Setting: weak parent motif
Baseline: not given
Reading: higher = stronger binding
Endpoint: normalised enrichment score
Parent: viral docking peptide; TSVRRALFTGGSD
T9Q: -0.394
R5K: 0.454
V3E: -0.106
G10Y: 0.0724
F8V: -0.0371
R4D: -0.479
T9Y: 0.186
R4S: 0.336
G11P: 0.291
G11Q: 0.0647
L7R: 0.642
S12F: -0.0771
S2Q: -0.417
R5K F8L: 0.181
R4V: -0.164
G10E: 0.382
R5N: 0.227
L7P: 0.0154
A6I: 0.381
G10F: -0.145
R4E: -0.0895
T9K: 0.245
L7F: -0.0681
S12I: 0.33
R5W: 0.382

Study 2
Target: UDP-N-acetylglucosamine--peptide N-acetylglucosaminyltransferase 110 kDa subunit (OGT, Homo sapiens, UniProt O15294)
UniProt O15294, sequence (whole entry, looked up): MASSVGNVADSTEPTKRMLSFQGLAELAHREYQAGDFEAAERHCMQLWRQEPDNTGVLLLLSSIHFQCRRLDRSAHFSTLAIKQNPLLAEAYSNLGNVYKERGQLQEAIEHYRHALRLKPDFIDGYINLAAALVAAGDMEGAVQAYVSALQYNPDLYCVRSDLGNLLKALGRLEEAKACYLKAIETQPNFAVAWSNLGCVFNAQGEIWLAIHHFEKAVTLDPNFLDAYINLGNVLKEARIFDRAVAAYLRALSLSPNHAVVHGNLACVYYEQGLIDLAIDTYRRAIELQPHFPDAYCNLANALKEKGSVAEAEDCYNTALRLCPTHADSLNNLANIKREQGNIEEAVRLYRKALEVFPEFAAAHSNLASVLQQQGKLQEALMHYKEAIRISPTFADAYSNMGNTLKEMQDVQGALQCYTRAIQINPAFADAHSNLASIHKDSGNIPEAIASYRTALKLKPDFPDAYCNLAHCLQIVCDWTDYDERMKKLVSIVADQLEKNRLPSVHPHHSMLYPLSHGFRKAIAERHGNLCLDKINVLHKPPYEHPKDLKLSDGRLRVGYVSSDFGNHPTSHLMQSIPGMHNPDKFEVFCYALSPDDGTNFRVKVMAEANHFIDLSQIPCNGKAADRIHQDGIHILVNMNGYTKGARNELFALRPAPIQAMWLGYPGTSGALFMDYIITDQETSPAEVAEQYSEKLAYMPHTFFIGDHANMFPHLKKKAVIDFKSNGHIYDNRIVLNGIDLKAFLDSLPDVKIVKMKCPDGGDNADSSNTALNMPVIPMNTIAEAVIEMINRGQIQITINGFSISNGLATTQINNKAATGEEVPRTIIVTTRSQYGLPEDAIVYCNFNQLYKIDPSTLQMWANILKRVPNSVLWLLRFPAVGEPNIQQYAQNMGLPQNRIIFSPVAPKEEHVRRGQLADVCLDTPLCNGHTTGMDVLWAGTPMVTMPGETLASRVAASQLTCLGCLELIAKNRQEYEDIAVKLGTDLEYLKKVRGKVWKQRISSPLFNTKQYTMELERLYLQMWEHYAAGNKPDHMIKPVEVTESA
Observed: phage display binding
Method: phage display panning NGS
Form: peptide
Setting: panning round 3
Baseline: OGT-panned over input library
Endpoint: fold enrichment
WPVQPMYQIFGRYPE: 2.32
GHDSYMPFYQISLFR: 2.6
QYVPYYQIEVNSQPY: 1.74
NFLPFYAIQTFNNAT: 2.78
QDFKPMYQIKIRSHA: 7.77
YFEPKYEISFKYPHD: 2.32
MQEYSPGYQIQFSKP: 2.53

Study 3
Target: vanadate, free oxyanion
Method: microfluidic competitive inhibition
Sample: in vitro, cell-free expressed
Concentration: not given
Setting: derived from inhibition constants, unchanged parent 676 nM
Reading: lower = stronger binding
Endpoint: oxyanion analog dissociation constant
Parent: PafA, mature enzyme, eGFP fusion (Elizabethkingia meningoseptica, UniProt Q9KJX5); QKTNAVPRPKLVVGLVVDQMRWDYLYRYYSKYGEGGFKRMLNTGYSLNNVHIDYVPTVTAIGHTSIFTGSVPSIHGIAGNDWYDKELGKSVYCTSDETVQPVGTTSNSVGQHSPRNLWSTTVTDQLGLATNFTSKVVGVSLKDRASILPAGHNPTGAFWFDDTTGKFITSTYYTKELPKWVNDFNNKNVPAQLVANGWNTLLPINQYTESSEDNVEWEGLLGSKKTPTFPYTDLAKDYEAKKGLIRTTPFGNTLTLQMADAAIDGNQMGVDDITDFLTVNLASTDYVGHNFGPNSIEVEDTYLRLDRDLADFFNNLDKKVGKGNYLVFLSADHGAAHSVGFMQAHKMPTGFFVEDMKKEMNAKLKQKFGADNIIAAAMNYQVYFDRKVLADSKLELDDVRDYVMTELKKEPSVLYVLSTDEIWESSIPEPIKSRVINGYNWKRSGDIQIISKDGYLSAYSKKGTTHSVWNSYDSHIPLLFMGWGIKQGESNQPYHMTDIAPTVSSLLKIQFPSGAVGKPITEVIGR
Y45G: 602 nM
W198V: 699 nM
N205V: 693 nM
N153G: 590 nM
I450G: 1.36 µM
V109G: 700 nM
R434V: 923 nM
A262V: 731 nM
K224G: 588 nM
L417G: 989 nM
I422G: 797 nM
E354G: 646 nM
N372V: 862 nM
T105V: 718 nM
N314G: 566 nM
Y28G: 853 nM
T226V: 746 nM
H345G: 696 nM
N107G: 840 nM
D371G: 614 nM
L281G: 1.62 µM
V139A: 577 nM
G517A: 657 nM
A282V: 23.9 µM
K387G: 995 nM

Further values, each from its own experiment
PhoQ, residues 284 288 289 292 302 303 ASSHFY  fold induction (PhoP, residues 12 14 15 18 19 IQFRS (Escherichia coli, UniProt P23836); Sort-seq, refers to: YFP reporter; E. coli; PhoQ-PhoP variant library, added: 10 µM Mg2+; baseline: high Mg2+ state, higher = stronger signaling): 14.7

Some of these lines once more (study 1):
S12F: -0.0771
F8V: -0.0371
T9Y: 0.186
R5K F8L: 0.181
R5N: 0.227
L7F: -0.0681
G11Q: 0.0647
